Measurements of several laboratories.
Numbered parts are unrelated; each lists some results of a single study.

Study 1 — technique: RNA Bind-n-Seq; molecule type: RNA; sample: in vitro; concentration: 200 nM; notes: whole 134-nt RNA, ends assumed; together with: 150 mM KCl; baseline: input library; reading: higher = stronger binding; endpoint: log2 enrichment
Target: Ras GTPase-activating protein-binding protein 1, full length (G3BP1, Homo sapiens, UniProt Q13283)
Chain of UniProt Q13283 (whole entry, looked up): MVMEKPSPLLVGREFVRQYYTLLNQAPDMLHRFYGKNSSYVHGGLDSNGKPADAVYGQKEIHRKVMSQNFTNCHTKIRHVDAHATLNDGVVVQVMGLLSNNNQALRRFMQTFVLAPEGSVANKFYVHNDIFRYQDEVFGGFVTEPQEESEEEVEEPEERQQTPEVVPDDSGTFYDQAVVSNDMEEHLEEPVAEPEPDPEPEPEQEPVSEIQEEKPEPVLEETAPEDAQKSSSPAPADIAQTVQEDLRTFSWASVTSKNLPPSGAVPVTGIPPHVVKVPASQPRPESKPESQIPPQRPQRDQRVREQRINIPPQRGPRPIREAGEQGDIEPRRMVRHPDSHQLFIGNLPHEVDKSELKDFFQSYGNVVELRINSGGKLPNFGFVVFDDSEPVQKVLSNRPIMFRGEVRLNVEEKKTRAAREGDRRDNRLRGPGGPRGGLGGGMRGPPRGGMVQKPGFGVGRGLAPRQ
Constant ends, left off below: GGGAGUUCUACAGUCCGACGAUC … UGGAAUUCUCGGGUGUCAAGG
GCAGGAAGUAAAAACAAAUGGAAAUGCUUCGGAUAGUGGCAGGGGUGGAAAUUGCUAAGGAAAGGGUGGGAUGGGAGUGGGUAAAGAGUU: 0.805
GCAGGAAGUAAAAACAAAUGGAAAUGCUUCGGAUAAAGGCAGGGGUGGGGGUUGCUAAGGAAAGGGUGGGAUGGGAGUGGGUAAAGAGUU: 0.99
UAGCAUAUUGCCUUGUUCACUACCGAGGAGAUGAGAAGAUUAAAGGUUUCAUAUGGGAUCUCAUUACUCCAACUGAAGAUGGACAGACAC: 0.28
CUCAAGUCCUGUGCUACACAUCGUAUGUACCGAAUCGGGGCCGGCCGGGGCCGGAAAGUAUUAUGUUACGCCGUUCGGAUCUGCACUUCC: -0.296
UCAAGUCCUGUGCUACACAUCGUAUGUACCGAAUCGGUUUGGGGUUUGGGUUUGGAAAGUAUUAUGUUACGCCGUUCGGAUCUGCACUUC: -0.695
CACAGACAACACGCACCCACACAGACACAGAAGGAAGGGGUUGGGAUGGGGACAGGGUGCACAGCAGGGCGGGGUAGGACCCCAGCCCCU: 1.75

Study 2 — technique: protein-binding microarray; molecule type: double-stranded DNA, one strand shown; sample: in vitro; concentration: 940 nM top; notes: 60-bp whole probe; together with: salmon DNA 0.4 mg/ml; baseline: random background probes; reading: higher = stronger binding; endpoint: fitted relative affinity; constant ends, left off below: GCCTAGCAC … GTCTTGATTCGCTTGACGCTGCTG
Target: Interferon regulatory factor 5, full length, phosphomimetic (IRF5, Homo sapiens, UniProt Q13568-2, residues 1-514, S451D/S453D/S456D/S462D)
GACGGTTCCCTTTTCCTGACGTGCTAG: 0.921 z-score
GACGGTCTCATTTTCCTGACGTGCTAG: 1.53 z-score
TTAGGTCTCGCTCTCGGTTAGTGCTAG: 3.84 z-score
TTAGGACTGGATTATCGGTTAGTGCTA: -0.328 z-score
TTAGGTTGCGACTTTCGGTTAGTGCTA: 3.48 z-score
AAATTCTATTCTCTCAATTTGTGCTAG: 2.25 z-score
GACGGTTTCCTTCTCCTGTCGTGCTAG: 3.88 z-score
GACGTTCTCAGACTGGAGACGTGCTAG: -0.0927 z-score
TTACGACTGGGTCTCGGTTAGTGCTAG: 1.87 z-score

Study 3 — technique: protein binding microarray; molecule type: double-stranded DNA, one strand shown; sample: in vitro; concentration: not given; baseline: not given; reading: higher = stronger binding; endpoint: E-score
Target: Histone acetyltransferase KAT6A, winged helix 2, GST fusion (KAT6A, Homo sapiens, UniProt Q92794, residues 85-181)
Notes: 8-mer, flanks averaged, mean of 2 arrays, mostly near background
Construct (chain): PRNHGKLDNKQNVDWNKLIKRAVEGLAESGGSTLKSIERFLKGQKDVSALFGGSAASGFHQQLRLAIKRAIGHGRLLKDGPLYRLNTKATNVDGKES
CTGGGAAG: 0.0979
CTGCGGAA: 0.0226
GCGTTAGA: 0.0347
AACATCGG: 0.0505
GCTTTGCC: 0.0265
GATCTCTA: -0.0528
GGACTGCC: -0.0654
CCAGATAG: -0.027
ATGTTTTG: 0.0325
CGTCAGTA: -0.0957
AAGATTTG: -0.0617
ATACCAAG: -0.0191
ACACGCTG: -0.0031
GTGTAGTA: -0.122

Single results of other studies
PhoQ, residues 284 288 289 292 302 303 QWQEDG — fold induction (PhoP, residues 12 14 15 18 19 VQALL (Escherichia coli, UniProt P23836); Sort-seq, refers to: YFP reporter; E. coli; PhoQ-PhoP variant library, together with: 10 µM Mg2+; baseline: high Mg2+ state, higher = stronger signaling): 15.6

A few entries again (study 3):
GCGTTAGA: 0.0347
CTGCGGAA: 0.0226
